Measured values collected from several papers.
Numbered parts are unrelated; each lists some results of a single study.

Block 1
Target: RING finger protein unkempt homolog, zinc fingers 1-6, GST-SBP tag (UNK, Homo sapiens, UniProt Q9C0B0, residues 30-357)
UniProt Q9C0B0, sequence (30-357, looked up): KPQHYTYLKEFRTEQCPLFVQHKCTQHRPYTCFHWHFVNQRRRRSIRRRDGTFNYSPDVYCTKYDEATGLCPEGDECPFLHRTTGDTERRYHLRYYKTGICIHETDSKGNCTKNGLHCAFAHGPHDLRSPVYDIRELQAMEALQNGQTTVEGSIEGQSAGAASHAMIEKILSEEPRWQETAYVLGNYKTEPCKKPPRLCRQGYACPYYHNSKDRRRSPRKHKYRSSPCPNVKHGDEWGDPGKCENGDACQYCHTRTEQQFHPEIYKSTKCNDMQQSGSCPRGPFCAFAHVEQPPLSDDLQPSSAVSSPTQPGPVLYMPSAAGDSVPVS
Method: RNA Bind-n-Seq
Molecule type: RNA
Matrix: in vitro
Tested at: not given
Setting: RNA with constant flanks, human and mouse sites, ends assumed
Reference: input RNA pool
Reading: higher = stronger binding
Shared flanks, not repeated: GGGAGUUCUACAGUCCGACGAUC … CAACAGAGGAUUGAGCAUCA
For `UGAUCUUCUGCUCUUCCCACUUCCUCCCCUUUCUACUGCUCUCCCAUUUUCCCUUGCUGGGAGUAGCCACAUGCUCUUGCCCCCCAACCCUUGUAUAUGGGGACAGUGGGGUCAGUGCAG`, the bound/input enrichment was 0.245 ratio.
The bound/input enrichment of `UCCUUCUGUCCAGUUUUCAGCACUAGUCUUACUCAGCUAUCCAUUAUAGUUUUGCCCUUAAGAAGUCAUGAUUAACUUAUGAAAAAAUUAUUUGGGGACAGGAGUGUGAUACCUUCCUUG` is reported as 0.41 ratio.
The bound/input enrichment of `AAGACAGAGCAGUACGUGGAACUUCACAAAGGCGAGGUGGUAGAUGUCAUGGUCAUUGGACGGCUAUGAUGGUGACCAACAGGAGAAAGUUUUGAUGCAUGUCCACAUAUCAUUGACUGU` is reported as 0.188 ratio.
`GAAGACGGCGACUGUACAUUAUCUCACUUAGAGAAUAUGAAAAUCAUUUUGUUUUGAAGCUAGGUAUUAAACUGGAGUAGCUAUUACGUUCUUGAAAACUGGGGCAGGUGUGCCCUUGAC` gave a bound/input enrichment of 33.7 ratio.
With `CCUUCCCCGACCACACCCCAAUGCCUUCCCAGCUUGGAAGCCAAGGCAGCUGAUGAAGGGAGCUCAGGAGAGCCGUCUUCAGCUGGGCUGGGGUUGGGGCUGCUGUGAGGAAAACCUGCC` the bound/input enrichment was 0.0834 ratio.
With `GCCGGAAACAAACCGGAAGCAGUAGAAGUAACAUUUGCAGAUUUCGAUGGGGUCCUCUAUCAUAUUUCAAAUCCUAAUGGAGACAAAACAAAAGUGAUGGUCAGUAUUUCUUUGAAAUUC` the bound/input enrichment was 0.621 ratio.
With `AGCCUCAAGUUCUCCAGCUCUGGGGACUUCCUGGUGGCUGGGGUAGGGCAGGAGCACAGGCUUGGCCGAUGGUGGAGAAUCAAAGAGGCUCGGAAUUCUGUCUGCAUCAUCCCACUCCGC` the bound/input enrichment was 0.132 ratio.
`GCCAUCCAGGAGCGUGUGGCCCAGGGCCAGACUGGAAACUUCUUGUUUUUUGGCUGCCGCUGGCGGGACCAAGACUUCUACUGGGAGGCUGAGUGGCAGGAGCUGGAGAAGCGGGACUGU` gave a bound/input enrichment of 0.246 ratio.
The bound/input enrichment of `CGGGCAGUAGAGGAACUACACAAACUUUUGAAAGAAGCUGGUGAAGCCAACAAAGCAAUACAAGAUCAUCUUCUAGAGGUGGAGCAAUCCAAAGAUCAAAUGGAAAAAGAAAUGCUUGAG` is reported as 0.157 ratio.
For `ACAUAGCUGACUCUCCACUCAAUUUUGUUGUUGUUGUUGUCGUCAUUUUUCACAAUACUUUAGCAAAUUUUUUAUCUUAUGGGGGACUCGGUUUCUUUUCACAUGUGAUUUCUGGGAGGC`, the bound/input enrichment was 12.2 ratio.
For `AAGGUGGUUGAACAGGGUAUGUUUGUAAAGCACUGCAAAGUAGAAGUAUAUCUCACAGAAUUGAAGCUAUGUGAAAAUGGAAACAUGAAUAAUGUUGUAACUCGAAGAUUUAGCAAAGCU`, the bound/input enrichment was 0.742 ratio.

Block 2
Target: Hepatocyte nuclear factor 3-alpha (Foxa1, Mus musculus, UniProt P35582, residues 1-468, full length assumed)
Method: EMSA with sequencing
Molecule type: double-stranded DNA, one strand shown
Matrix: in vitro
Tested at: 10 and 20 nM
Setting: whole designed probe, mean of two concentrations, ends assumed
Reference: negative control set to 0
Reading: higher = stronger binding
Shared flanks, not repeated: GTGAGCGGTGCCCATTGATGGGGAAC … TTTCACTGGGATCGTGGGGAC
Construct (chain): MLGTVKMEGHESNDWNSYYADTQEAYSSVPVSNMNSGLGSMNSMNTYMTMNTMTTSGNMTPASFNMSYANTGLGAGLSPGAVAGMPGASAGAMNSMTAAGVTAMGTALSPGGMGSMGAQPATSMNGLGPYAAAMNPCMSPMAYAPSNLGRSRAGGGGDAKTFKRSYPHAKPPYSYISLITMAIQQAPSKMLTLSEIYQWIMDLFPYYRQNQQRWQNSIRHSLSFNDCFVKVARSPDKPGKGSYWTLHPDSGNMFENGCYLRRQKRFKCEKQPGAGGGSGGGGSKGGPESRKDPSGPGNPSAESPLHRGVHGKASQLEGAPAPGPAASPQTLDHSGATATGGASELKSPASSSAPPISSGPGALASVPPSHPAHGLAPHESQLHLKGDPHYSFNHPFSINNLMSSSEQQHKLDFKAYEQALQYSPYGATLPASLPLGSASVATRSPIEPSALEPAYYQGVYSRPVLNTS
`ATCTTCCCCCTCTTCCTTGCCCCACCAGCTCACCTACGGGGGTTATTTGCACAAAGGAAAATAAATAAAGCCGGCATTCGTTAACCCTCTTCACGCGCATACTGCTGTTTGCTCTGCATGAATCATGGTCCTTACGCGACGCCAGGCTCCGGGAGAGCAAAGCACCGTGTCAGGCGCATGATCCGGGCTCGCC`: “normalised bound fraction” 0.387 ratio.
For `GTTTTTGCACTGACGTGCACAGGCAAGCCCATATCTCTGCCTCTAAGCACATACTCTCTTTCCAAAGGTTGTGTAATGAGTGAGTCAGAGCTGTGTACACATAAGAAAGGAAAGAGGGCAAGGCAGGGCAGGAATTCAGCTCAATGAAGCCGCGGAGCCTCCATTTAAAAATGATACTAATGAGCCCACAGAA`, “normalised bound fraction” read 0.176 ratio.
Under “normalised bound fraction”, `TGCCACGGACGTGCAGCCGTTAAAATATTAATGTCTGGCATGTGGCAAACATTTAAAATATGCTGAGACTTGGGAGCTGTTGAGCTGGGCCTTGTTGACACACCGCCTCACCTGGGTGTTGTTTGCTATGTAAATGCCAAGGATTCCTCCCTGAAGCTGGAACCTGCACTCCTCTTCTCACCCCTCATTTCCT` is recorded as 0.275 ratio.
For `TACCATTCAAGAAACCTTTTTTTTTTCTTTGCGTCTGTGAGACATATGAGAAAATCAATAAATTTACTTTCTTGGAAAAATAAACACTTCCTATGTAAACAAACATAGACCTTTAGAGCAGTATAAATTGTTTGTGAAAATAGTTTAATTGCAGCAAACACACAGAAAGGATTAACTTATTTTCAGATTTGGT`, “normalised bound fraction” read 0.543 ratio.
`CCCTTAACCTACTCCTAAATCCTCTTTCCTTTTCCTTTCTAAATATCCTTTCGTGCTGTGAAGGGAAGAATGGAGGTGGGTCTTATTGCTACTTATTGACACATATCAGGTTTAGCTACACAATATGTTTGTAATTAAAAGCTTCAGCAAGAATATTCTGCTCCTTTCCTTTGAGGATTTGCAGAGCACAGGC` — result for “normalised bound fraction”: 0.0719 ratio.
`TTAAAGAGTCAATCAAAGTTTGCTTTAAGAGAAAAGTAAATACACCCAACTTTCCATACAATGCCGGACCCCGAGTTCACTTCCTGGTTTCACTGTTGACTCAGGTTGCAATCCTAGATAAGTAACTACACATGCTCACTGCCCTGGGCCCAAAGCTGGGGCGAGAGCCTGGAATCAGCGCACCCCCAAGAAT`: “normalised bound fraction” 0.448 ratio.
`ATCTTCCCCCTCTTCCTTGCCCCACCAGCTCACCTACGGGGGTTATTTGCACAAAGGAAAATAAATAAAGCCGGCATTCGTTAACGCAGTTCACGCGCATACTGCTGTTTGCTCTGGATGAATCATGGTCCTTTGGCGAGGCGTGGCTCCGGGAGAGCAAAGCACCGTGTCAGGGCCATGATCCGGGGTGGCC` — result for “normalised bound fraction”: 0.381 ratio.
`CCTCTCCATTCTGATTTCCTTCAGACAAAATTATTTCTATCTTCGACATCAACAACTCTCCTGAAAAACATATAGTCAGTTCATCCAATTTCAAAATTACTCTTTACTCTTGAGCACAATTTCTTGCCTACCAATTTATGAGCTCTTTCCAGTGAAAGTCCATATCTTCCATTCTTCTGTTACCCCTTTGGGG` — result for “normalised bound fraction”: -0.068 ratio.

Block 3
Target: RNA binding protein fox-1 homolog 2, RRM domain, GST-SBP tag (RBFOX2, Homo sapiens, UniProt O43251-10, residues 100-194)
Method: RNA Bind-n-Seq
Molecule type: RNA
Matrix: in vitro
Tested at: 365 nM
Setting: natural RNA segment, single round, ends assumed
Reference: no-protein control
Reading: higher = stronger binding
Shared flanks, not repeated: GGGAGUUCUACAGUCCGACGAUC … UGGAAUUCUCGGGUGCCAA
Residues (chain): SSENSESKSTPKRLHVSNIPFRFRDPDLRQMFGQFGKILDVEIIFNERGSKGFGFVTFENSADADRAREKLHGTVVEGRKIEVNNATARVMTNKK
`UCAUGGUGUGAGAUGUGAAUAAUUGCACAUGGUUUUGAGAACAGGAACUGUAAAUCUGUUGCCCAAUCUUAACAUUUUUGAGCUGCAUUUAAGUAGACUUUGGACCGUUA` — result for “RBNS enrichment (R)”: 0.458.
Under “RBNS enrichment (R)”, `GAAAUCCCAUGUACAAAUAAAAUUCUAUGUCUGAAAGAUUCUUCUGUUUGAACUUAAGAAGAAUAAACUACACUUUACUUUAUGUGCAGAAAUGAGACAUUCUGACAAUA` is recorded as 1.86.
`AGUGUCUUACUCUACUGGAUGCUGGAUAGAAAUUUAGGGUAACUUCUGACAAAGUGUGCCGGUCUAACAAUAAAAUAGGGUUUUGUAAUCUUCUGGUUGGUAAAAGAUAU`: “RBNS enrichment (R)” 0.493.
`CUGUAAGACCCCAGCUUUUCCUGGAAGAUGGGACUCUGGGGUGUGUGGUGCUCACCAGAGUCAGGCCACCCACUGGGCUCGGCAGGAGAUAGGGAGCCCCAUCACCUGAC` — result for “RBNS enrichment (R)”: 0.413.
Under “RBNS enrichment (R)”, `UCUAGAGUGAGUCCCAGUUACAUCAAACAGUGACUUCCAGUUAUUCCCCAGUAAGUCUGAGUGGUUCCUUCAAGCUGGGUGUCUUUCCAGCCUUUGCCAGUCUAGCCCCA` is recorded as 0.256.
Under “RBNS enrichment (R)”, `AGCUCACAAACUCAGUUGGCCCGUGCUCCGUUCACCUGCGAAGGGCAGCCUAAUAUGAAGAUUGAUCCUUCAAUUUUUUUCCUGUUCAUUUUAGUGCUAAAAGGCUUUUA` is recorded as 0.251.
`UUCAGUAAAGAGCUACAGAACAUGAGUACAUUGUUAUACCACAGAUUUUUCUUGCAUUAGGGCACAGUGUUAAAUUUUUUGGAGGUAAAUAUACUAUUUAUAAUCACUAU`: “RBNS enrichment (R)” 0.79.
`GUUUUGAAGGUUCUCAUGGUGCACAGCAGUGUGUAUGUGGUGUACAACAGUGUGUAUGCAGCCGUGCUUACAGCCUGUGGUUGCUACCUGUUGUACCAGUCUGACCAGUG`: “RBNS enrichment (R)” 0.392.
`UAGCUGGCAGAGUGGUAUCAAAGGAGAAAAACAGUGAAAAAGCCAAUUUCACUGGUUCGUUCAAUCCAGCUUGUUGCUAAUAUUAGUUACCCUUGUUUUAAUGACAGAGA` — result for “RBNS enrichment (R)”: 0.432.
`GUUAAGUAGUUGUUUUAAAAUACUUAAUAAAAUAAUUCUUUUCCUGUGGAAGAGAAAGAUGGUCUCCUGAGUUUUUUAAAAUAGCUCACUUGGUGUGAUAUGGCUGACUC`: “RBNS enrichment (R)” 0.346.
For `AAAACAGUGAAUUAGCUGAAAAGAAAUGGAGAAGUGUCUUGGAGAUUUACUGAAAUAGCUAAUUGUCAGGUGCUUAAGCUUUUGUGCAGUAAGCCUAAAAGUUAGCAGAA`, “RBNS enrichment (R)” read 0.645.
Under “RBNS enrichment (R)”, `AGGUGCUAUAGGAAACAUAGAUCCAGCCAGGGGCUUCCCUAAAGCAGUGCAGCACCGGCCCAGGGCAUCACUAGACAGGCCCUAAUUAAGUUUUUUUUAAAAAGCCUGUG` is recorded as 0.395.

Block 4
Target: Sal-like protein 4, full length isoform B (SALL4, Homo sapiens, UniProt Q9UJQ4-2, residues 1-616)
Method: universal PBM
Molecule type: double-stranded DNA, one strand shown
Matrix: in vitro
Tested at: not given
Setting: 8-mer, flanks averaged, mean of replicates
Reading: higher = stronger binding
For `AACGAATC`, the E-score was 0.137.
The E-score of `GAGTAGTA` is reported as 0.098.
The E-score of `ATGGACAG` is reported as 0.0423.
For `GCAGCGCC`, the E-score was -0.314.
The E-score of `GGGTCTAC` is reported as -0.13.
`GACGAACA` has an E-score of 0.0549.
`GCGGTGAC` has an E-score of -0.17.
With `CCTGATTC` the E-score was -0.112.
For `AGCTGCGC`, the E-score was -0.264.
The E-score of `CAGGTAGA` is reported as -0.0859.
For `CACATACA`, the E-score was 0.21.
The E-score of `ACATCAAA` is reported as 0.183.
The E-score of `CGTTTACC` is reported as 0.0345.
The E-score of `CGTTGTGC` is reported as -0.00773.
`GGAATACC` gave an E-score of -0.118.
With `AGCTCGTA` the E-score was -0.0129.
With `GCTTACCA` the E-score was 0.0233.
`CTGTTAGA` has an E-score of -0.0678.
With `AGTACCTG` the E-score was 0.0123.

Excerpt of the above (block 4):
`GACGAACA` has an E-score of 0.0549.
With `AGTACCTG` the E-score was 0.0123.
`CTGTTAGA` has an E-score of -0.0678.
With `GCTTACCA` the E-score was 0.0233.
The E-score of `CGTTGTGC` is reported as -0.00773.
